# Measured values pooled from the literature.
# Each line is one published result; not all experiments were run side by side. ± marks the error that the study gave.
Compound,organism,test,system,conditions,scale,measurement,value
CCOc1cccc(=O)c2c(C)n(Cc3ccc(Cl)cc3)c(C)c12,Plasmodium falciparum,"parasite growth, SYBR Green",3D7 wild type,72 h,,EC50,1.08 ± 0.58 µM
C#Cc1ccc(C=NNC(=O)c2ccc(Br)cc2Br)c(O)c1,Cryptococcus neoformans,,H99,"unit not given, added: fluconazole",lower = more synergy,FICI,1.12
CC1=C(C)C(=O)C(CCCCC#CCCCC#CCO)=C(C)C1=O,Plasmodium falciparum,,7G8,,,IC50,2 µM
CC(C)[C@H]1NC(=O)[C@H](Cc2ccccc2)NC(=O)CNC(=O)[C@@H](Cc2ccccc2)NC(=O)[C@H](CCC(N)=O)NC(=O)[C@@H](CCCN)NC1=O,Naegleria fowleri,,,trophozoites,,IC90,> 16 µg/mL
CC[C@H](C)[C@H](NC(=O)[C@H](C)NC(=O)[C@H](CCCCN)NC(=O)[C@H](CC(C)C)NC(=O)[C@H](C)NC(=O)[C@@H](NC(=O)[C@H](Cc1c[nH]cn1)NC(=O)[C@H](CC(C)C)NC(=O)[C@@H](NC(=O)[C@@H](NC(=O)[C@H](CCCCN)NC(=O)[C@H](C)NC(=O)[C@H](C)NC(=O)[C@H](CO)NC(=O)[C@H](CCCCN)NC(=O)[C@H](Cc1ccccc1)NC(=O)[C@@H](NC(=O)[C@H](CCCCN)NC(=O)[C@H](CC(C)C)NC(=O)[C@H](Cc1ccccc1)NC(=O)[C@H](CO)NC(=O)[C@H](CCCCN)NC(=O)[C@H](Cc1c[nH]c2ccccc12)NC(=O)[C@H](CCCCN)NC(C)=O)[C@@H](C)O)[C@@H](C)O)C(C)C)[C@@H](C)O)C(=O)N[C@@H](CO)C(=O)N[C@@H](CO)C(N)=O,Streptococcus pyogenes,,erythromycin-sensitive,21 strains,,MIC50,32 µg/mL
COc1cc(N[C@H](C(=O)c2c[nH]c3ccc(OC(F)(F)F)cc23)c2ccc(Cl)cc2OC)cc(S(C)(=O)=O)c1,dengue virus 2,"viral infection, luciferase reporter virus",,"0.001 nM, 48 h",,inhibition,-10.8%
C#Cc1cccc(C=NNC(=O)c2ccc(Br)cc2)c1O,Cryptococcus neoformans,,H99,"unit not given, added: amphotericin B",lower = more synergy,FICI,1.67
CC(=O)c1c(Nc2c(C)cc(C)cc2C)oc(C)cc1=O,Plasmodium falciparum,"parasite growth, SYBR Green",,72 h,reference: 3D7-E182D over 3D7,EC50 ratio,0.8
C#Cc1ccc(O)c(C=NNC(=O)c2ccc(COC)cc2)c1,Cryptococcus neoformans,,H99,"unit not given, added: fluconazole",lower = more synergy,FICI,1
CO[C@H]1[C@H](O[C@H]([C@H]2O[C@@H](n3ccc(=O)[nH]c3=O)[C@H](O)[C@@H]2O)[C@H](NCCCNC(=O)[C@@H](NC(=O)[C@@H](NC(=O)N[C@H](C(=O)O)C(C)C)[C@@H]2CCN=C(N)N2)[C@@H](OC(=O)CCCCCCCCCCCCN(O)C(=N)N)C(C)C)C(=O)O)O[C@H](CN)[C@H]1O,Candida glabrata,alamar blue,DSY565 (NR-51686),,,MIC50,> 35 µg/mL
O=S(=O)(c1cccc2c(Cl)cccc12)N1CCCNCC1,Plasmodium falciparum,,3D7,,,IC50,12.6 µM
Cc1ccc2[nH]c3c(c2c1)CCCC3NCCc1ccc(Br)cc1 (stereo not drawn),Streptococcus pneumoniae,,,"concentration not given, 10% fetal bovine serum",reference: without serum,MIC fold change,4
CCCNC(=O)c1ccnc(-c2ccc(CNC3Cc4ccccc4C3)cc2)c1,Plasmodium falciparum,"parasite growth, SYBR Green",3D7 DHODH E182D,72 h,,EC50,1.73 ± 0.16 µM
NCCCC[C@H]1NC(=O)[C@H](Cc2ccccc2)NC(=O)[C@H](Cc2c[nH]c3ccccc23)NC(=O)[C@@H](Cc2ccccc2)NC(=O)[C@H](Cc2ccccc2)NC(=O)[C@@H](CCCN)NC(=O)[C@H](CCCN)NC1=O,Acanthamoeba castellanii,,,trophozoites,,IC50,> 16 µg/mL
CC12CC1(C)C(=O)N(c1cc(Cl)cc(Cl)c1)C2=O (stereo not drawn),Botrytis cinerea,lesion diameter,"B05.10, cucumber seedlings","spray, 3 days, 20 °C",,EC95,18.4 µg/mL
Nc1ncnc2c1ncn2[C@@H]1O[C@@H]2COP(=O)(O)O[C@H]3[C@@H](O)[C@H](n4cnc5c(=O)[nH]cnc54)O[C@@H]3COP(=O)(O)O[C@H]2[C@H]1O,West Nile virus,"RNA sequencing, refers to: trimerization, collagen chain, R-HSA-8948216",HFF-1 cells,"concentration not given, downregulated pathway",reference: WNV-infected untreated cells,fold enrichment,9.64
COC(=O)N[C@H](C(=O)N1CCC[C@H]1c1ncc(-c2ccc(-c3ccc(-c4cnc([C@@H]5CCCN5C(=O)[C@@H](NC(=O)OC)C(C)C)[nH]4)cc3)cc2)[nH]1)C(C)C,Hepatitis C virus,,"replicon cells, genotype 1a","90% effect level, added: NS3 inhibitor, ratio 1:1",,combination index,0.85
CC(C)[C@H]1NC(=O)[C@H](CCCNC(=N)N)NC(=O)CNC(=O)[C@@H](Cc2c[nH]c3ccccc23)NC(=O)[C@H](CCCCN)NC(=O)[C@@H](CCCN)NC1=O,Naegleria fowleri,,,trophozoites,,IC50,> 16 µg/mL
Cc1cc(Cl)cc(S(C)(=O)=O)c1NC(=O)c1cc(Br)nn1-c1ncccc1Cl,Spodoptera litura,leaf-dip,third instar larvae,"12.5 ppm, 72 h",,mortality,96.7%
CS(=O)(=O)CCCn1c(Cn2c(=O)n(CC(F)(F)F)c3ccncc32)cc2cc(Cl)ccc21,respiratory syncytial virus,RT-qPCR,"hospitalized infants 1-24 months, nasal swab","oral, 9, 6 or 5 mg/kg daily, day 28, high dose by age cohort",reference: baseline,LS mean viral load change,-4.77 log10 copies/mL
N=C(N)NC(=O)Cc1c(Cl)cccc1Cl,Plasmodium falciparum,,W2,,,IC50,2.51 µM
CC(C)[C@H]1NC(=O)[C@H](Cc2ccccc2)NC(=O)CNC(=O)[C@@H](Cc2ccccc2)NC(=O)[C@H](CCCCN)NC(=O)[C@@H](CCCNC(=N)N)NC1=O,Acanthamoeba castellanii,,,trophozoites,,IC90,> 16 µg/mL
COc1ccccc1Cn1ccnc1SCC(=O)Nc1cc(C(F)(F)F)ccc1Cl,Plasmodium falciparum,"parasite growth, SYBR Green",3D7 wild type,72 h,,EC50,0.0489 ± 0.018 µM
CN(C)CCCN1c2ccccc2CCc2ccccc21,Plasmodium falciparum,,HB3,,,IC50,12.6 µM
Cn1c(=O)ccc2ccc(F)c(CCNC[C@H]3CN(c4cnc5c(n4)NC(=O)CO5)C(=O)O3)c21,Streptococcus pneumoniae,,,,,MIC50,0.03 µg/mL
O=C(NN=Cc1ccc(O)c(Br)c1)c1cccc(Br)c1,Cryptococcus neoformans,,,added: fluconazole,lower = more synergistic,FIC index,0.47
CC(=O)Nc1sc(C)c(C)c1CN1CCc2ccccc2C1,Plasmodium falciparum,"parasite growth, SYBR Green",3D7 wild type,72 h,,EC50,0.237 ± 0.06 µM
Oc1ccc(-c2nc(-c3ccc(Oc4ccccc4CBr)cc3)no2)cc1,Clostridioides difficile,spore germination,ATCC 43255,"45 µM, 1 h",,inhibition,14 to 39%
NCCCC[C@H]1NC(=O)[C@H](CO)NC(=O)[C@H](Cc2ccccc2)NC(=O)[C@@H](Cc2ccccc2)NC(=O)[C@H](Cc2c[nH]c3ccccc23)NC(=O)[C@@H](CCCN)NC(=O)[C@H](CCCN)NC1=O,Naegleria fowleri,,,trophozoites,,IC90,> 16 µg/mL
CCCCN(C)CC#Cc1ccc2[nH]c(C)c(Cl)c(=O)c2c1,Plasmodium falciparum,"parasite growth, SYBR Green",3D7 DHODH E182D,72 h,,EC50,0.399 ± 0.029 µM
COc1ccccc1N1CCN(CCCCNC(=O)c2ccc3ccccc3c2)CC1,Plasmodium falciparum,,D10,,,IC50,6.31 µM
CCOC(=O)COc1ccc2ccc3oc([N+](=O)[O-])cc3c2c1,Klebsiella pneumoniae,REMA,,,,MIC90,0.25 µg/mL
CCCCCCCCCC(=O)N[C@@H](Cc1c[nH]c2ccccc12)C(=O)N[C@H](CC(N)=O)C(=O)N[C@@H](CC(=O)O)C(=O)N[C@@H]1C(=O)NCC(=O)N[C@@H](CCCN)C(=O)N[C@@H](CC(=O)O)C(=O)N[C@H](C)C(=O)N[C@@H](CC(=O)O)C(=O)NCC(=O)N[C@H](CO)C(=O)N[C@@H]([C@H](C)CC(=O)O)C(=O)N[C@@H](CC(=O)c2ccccc2N)C(=O)O[C@@H]1C,Streptococcus pneumoniae,,,,,MIC90,0.125 µg/mL
CC(C)[C@@H]1NC(=O)[C@@H](Cc2ccccc2)NC(=O)[C@H](Cc2ccccc2)NC(=O)[C@@H]([C@H](C)O)NC(=O)[C@@H](CCCNC(=N)N)NC1=O,Acanthamoeba castellanii,,,trophozoites,,IC50,> 16 µg/mL
CN(C)c1nc(NCc2cccc(F)c2)c(/N=N/c2ccc(Cl)cc2)c(N(C)C)n1,Ostrinia furnacalis,leaf dipping,,"500 mg/L, 96 h",,mortality,100%
Oc1ccc(-c2nc(-c3ccc(Oc4ccc(I)cc4)cc3)no2)cc1,Clostridioides difficile,spore germination,ATCC 43255,"45 µM, 1 h",,inhibition,14 to 39%
Cc1cc(Nc2ccc(Cl)c(Cl)c2)n2nc(C)nc2n1,Plasmodium falciparum,"parasite growth, SYBR Green",3D7 wild type,72 h,,EC50,0.777 ± 0.12 µM
CCCCCCCCCCCCCCCC(=O)NCCO,Plasmodium falciparum,,GB4,,,IC50,3.16 µM
C[C@@H](O)[C@H]1C(=O)N2C(C(=O)O)=C(S[C@@H]3CN[C@H](C(=O)N(C)C)C3)[C@H](C)[C@H]12,Klebsiella pneumoniae,,"NDM-producing, neutropenic BALB/c mouse, thigh infection, thigh","dose not given, 2 h",,"bacterial burden, best",7.2 log10 CFU/thigh
